Published values pooled from the literature.
“And” joins repeats or separate records; there may be more than shown. ± marks the error that the study gave. Values after ≈ are worked out from the molar mass of the structure shown.

Compound | organism | test | system | conditions | how to read | endpoint | value
Cc1nc2[nH]c(=O)n(O)c(=O)c2s1 | Amaranthus retroflexus | – | – | 750 g/ha, 21 days, pre-emergence, glasshouse pot | – | growth inhibition | 0%
CO[C@H]1/C=C/O[C@@]2(C)Oc3c(C)c(O)c4c(c3C2=O)C2=NC3(CCN(CC(C)C)CC3)NC2=C(NC(=O)/C(C)=C\C=C\[C@H](C)[C@H](O)[C@@H](C)[C@@H](O)[C@@H](C)[C@H](OC(C)=O)[C@@H]1C)C4=O | Mycobacteroides abscessus | bacterial growth | subsp. abscessus K21 clinical isolate | – | – | IC50 | 1620 nM
CC(C)C[C@H](NC(=O)OCc1ccccc1)C(=O)N[C@H](C=O)C[C@@H]1CCCNC1=O | enterovirus A71 | viral replication, RT-qPCR | RD | 72 h | – | EC50 | 2000 ± 340 nM
CO[C@H]1/C=C/O[C@@]2(C)Oc3c(C)c(O)c4c(O)c(c(/C=N/N5CCN(C)CC5)c(O)c4c3C2=O)NC(=O)/C(C)=C\C=C\[C@H](C)[C@H](O)[C@@H](C)[C@@H](O)[C@@H](C)[C@H](OC(C)=O)[C@@H]1C | Bacillus subtilis | bacterial cytological profiling | ATCC 6633 | – | – | DNA length | 1.79 µm and 1.9 µm and 1.74 µm
CCOC(=O)c1cc(-c2nc3ccccc3s2)c(=O)n(NS(=O)(=O)c2ccc(C)cc2)c1N | hepatitis C virus | qRT-PCR | Huh7.5, genotype 4 | concentration not given | – | viral load reduction | 20%
CC(C)[C@@H](N)C(=O)OC[C@H]1O[C@@](C#N)(c2ccc3c(N)ncnn23)[C@H](O)[C@@H]1O | human respiratory syncytial virus | viral replication, viral protein ELISA | HEp-2, A2 | 5 days | – | EC50 | 1440 ± 360 nM
COc1cc([C@@H]2c3cc4c(cc3[C@H](O)[C@H]3COC(=O)[C@H]23)OCO4)cc(OC)c1OC | Dengue virus type 2 | plaque | – | 0.1 µM | – | viral attachment inhibition | inactive
COC(=O)[C@H](Cc1ccc(O)cc1)NCc1cc2ccccc2nc1SC | Pseudomonas aeruginosa | – | – | 16 µg/mL, together with: pentamidine 100 µM | reference: control | growth | 55.6%
N#C[C@@]1(c2ccc3c(N)ncnn23)O[C@H](COC(=O)C2CCC(F)CC2)[C@@H](O)[C@H]1O (stereo partly shown) | human respiratory syncytial virus | viral replication, viral protein ELISA | HEp-2, A2 | 5 days | – | EC50 | 480 ± 65 nM
NC(=O)c1ncn([C@@H]2O[C@H](CO)[C@@H](O)[C@H]2O)n1 | Cucumber mosaic virus | – | – | 500 µg/mL | – | inactivation activity | 51% and 54% and 52%
Cc1c2c(nn1C)CSCc1cc(n(C)n1)CSc1cc(c3ccccc3c1)OCCCc1c(C(=O)O)n(C)c3c-2c(Cl)ccc13 | Staphylococcus aureus | broth microdilution | MRSA isolates | – | – | MIC50 | 12.5 µM
CC(=O)Nc1cc(Oc2ccc3c(c2)CCN3C(=O)Nc2ccc(CN3CCN(C)CC3)c(C(F)(F)F)c2)ncn1 | hepatitis C virus | viral replication | Huh-Luc/neo-ET replicon cells | – | – | EC50 | < 1500 nM
O=C(O)c1cn(C2CC2)c2cc(N3CCNCC3)c(F)cc2c1=O | Bacillus subtilis | bacterial cytological profiling | ATCC 6633 | – | – | DNA length | 2.78 µm and 2.54 µm and 2.41 µm
CCc1nc2[nH]c(=O)n(O)c(=O)c2s1 | Amaranthus retroflexus | – | – | 750 g/ha, 21 days, pre-emergence, glasshouse pot | – | growth inhibition | 6.7%
CCn1c(=O)c(-c2cc[nH]n2)cc2c(C)nc(N)nc21 | enterovirus A71 | – | suckling mouse, EV71-infected, liver | 0.25 mg/kg | direction not given | cellular necrosis score | 0
Cc1ccc(N(c2ccc(NC(=O)CN(C)c3ccccc3N3CCCC3=O)cc2)C(C)C)cc1 | Plasmodium falciparum | gametocyte viability, luciferase | stage V gametocytes | 48 h | – | EC50 | 123 nM
COC[C@H]1O[C@@H]2O[C@H]3[C@H](OC)[C@@H](OC)[C@@H](O[C@H]4[C@H](OC)[C@@H](OC)[C@@H](O[C@H]5[C@H](OC)[C@@H](OC)[C@@H](O[C@H]6[C@H](OC)[C@@H](OC)[C@@H](O[C@H]7[C@H](OC)[C@@H](OC)[C@@H](O[C@H]8[C@H](OC)[C@@H](OC)[C@@H](O[C@H]1[C@H](OC)[C@H]2OC)O[C@@H]8COC)O[C@@H]7COC)O[C@@H]6COC)O[C@@H]5COC)O[C@@H]4COC)O[C@@H]3COC | Escherichia coli | LuxR reporter, antagonist | DH5α sensor strain | 1 µM, together with: OHHL 200 nM | – | inhibition | -2 ± 3%
CC(=O)NC[C@H]1CN(c2ccc(N3CCOCC3)c(F)c2)C(=O)O1 | Staphylococcus epidermidis | – | methicillin-resistant, 10 isolates | serum 25% | – | MIC50 | 1 µg/mL
Oc1cc(O)c2c(c1)O[C@H](c1cc(O)c(O)c(O)c1)[C@@H](O)C2 | Streptococcus sobrinus | – | – | 500 µg/disc | – | inhibition zone diameter | 13 ± 1.2 mm

Compound | organism | test | system | conditions | how to read | endpoint | value
CC1(C)S[C@@H]2[C@H](NC(=O)[C@H](N)c3ccccc3)C(=O)N2[C@H]1C(=O)O | Pseudomonas aeruginosa | – | clinical isolate RKI-No_598/16 | – | – | MIC | > 16 µg/mL
CC(=O)ON=C1C=CC(=C(C#N)c2ccccc2)C=C1 | Pichia norvegensis | broth dilution | ATCC 96139 | 48 h, 37 °C | – | MFC | 8 µg/mL (≈ 30.3 µM)
C=CC[C@@H]1c2ccc(OC)c(OC)c2CN2CCc3cc4c(cc3[C@H]12)OCO4 | Staphylococcus aureus | – | P2rx7+/+ mice, skin wound infection | dose not given, day 7 | reference: day 0 | relative wound size | 0.61 and 0.36 and 0.14 and 0.87 and 0.11 and 0.17
O=C(O[C@@H]1O[C@@H]2COC(=O)c3cc(O)c(O)c(O)c3-c3c(cc(O)c(O)c3O)C(=O)O[C@H]([C@H]1O)[C@@H]2O)c1cc(O)c(O)c(O)c1 | Streptococcus sobrinus | broth microdilution | – | – | – | MBC/MIC ratio | 2
COc1cccc2c1C(=O)c1c(O)c3c(c(O)c1C2=O)C[C@@](O)(C(=O)CO)C[C@@H]3O[C@H]1C[C@H](N)[C@H](O)[C@H](C)O1 | Bacillus subtilis | bacterial cytological profiling | ATCC 6633 | – | – | DNA area | 2.05 µm² and 1.86 µm² and 1.59 µm²
N=C(N)c1ccc(OCc2cc(COc3ccc(C(=N)N)cc3)cc(-c3ccccc3)c2)cc1 | Escherichia coli | checkerboard | mcr-1 polymyxin-resistant | concentration not given, 20 h, together with: rifampicin | – | MIC of compound in combination | 3.13 µg/mL
CC(=O)NC[C@H]1CN(c2ccc(N3CCOCC3)c(F)c2)C(=O)O1 | Staphylococcus aureus | broth microdilution | vancomycin-resistant VRS4 | – | – | MBC | 64 µM (≈ 21.6 µg/mL)
[N-]=[N+]=N[C@]1(CO)O[C@@H](n2ccc(N)nc2=O)[C@@H](F)[C@@H]1O | human respiratory syncytial virus | viral replication | A549, A2 GFP reporter | – | – | EC50 | > 50000 nM
O=c1oc2c(O)c(O)cc3c(=O)oc4c(O)c(O)cc1c4c23 | Streptococcus sobrinus | – | – | MIC, first 15 min, together with: glucose 1% | – | initial rate of glycolytic pH drop | 0.057 pH units/min
CN(C)[C@@H]1C(O)=C(C(N)=O)C(=O)[C@@]2(O)C(O)=C3C(=O)c4c(O)cccc4[C@@](C)(O)[C@H]3C[C@@H]12 | Bacillus subtilis | bacterial cytological profiling | ATCC 6633 | concentration not given | – | cell width | 0.89 µm and 0.92 µm
N=C(N)c1cccc(OCc2ccc(COc3cccc(C(=N)N)c3)cc2)c1 | Escherichia coli | checkerboard | BW25113 | concentration not given, lowest-FICI combination, together with: erythromycin | – | MIC of compound in combination | 50 µg/mL
O=C1OC[C@H]2OC(O)[C@H](O)[C@@H](O)[C@@H]2OC(=O)c2cc(O)c(O)c(O)c2-c2c(O)c(O)c3oc(=O)c4c(c(O)c(O)c5oc(=O)c2c3c54)-c2c1cc(O)c(O)c2O (mixture of isomers) | Streptococcus sobrinus | broth microdilution | – | – | – | MBC/MIC ratio | 2
CC(C)n1ncc2c(C(=O)NCC3(C)CNC3)cc(C3CC3)nc21 | enterovirus A71 | – | Tainan/4643/1998 | 0.03 µM | – | plaque area | 97.8% and 94.8%
NC(=O)c1ncn([C@@H]2O[C@H](CO)[C@@H](O)[C@H]2O)n1 | human respiratory syncytial virus | viral replication, viral protein ELISA | HEp-2, A2 | 5 days | – | EC50 | 26600 ± 12800 nM
[H]/N=C(\N/C(=N/[H])NCCCCCCNC(=N)NC(=N)Nc1ccc(Cl)cc1)Nc1ccc(Cl)cc1 | Streptococcus sobrinus | – | ATCC 33478 | MIC | reference: control | cell surface hydrophobicity | decreased
Cc1cc(OC(C)C)ccc1C(=O)C(C)(C)NC(=O)c1sccc1C | Botrytis cinerea | appressorium formation | B05.10 | 0.3 µg/mL | – | inhibition | 84.5 ± 13.9%
CC1(C)S[C@@H]2[C@H](NC(=O)[C@H](N)c3ccccc3)C(=O)N2[C@H]1C(=O)O | Bacillus subtilis | bacterial cytological profiling | ATCC 6633 | concentration not given | – | DNA area | 1.5 µm² and 1.44 µm² and 1.29 µm²
O=c1[nH]c2ncsc2c(=O)n1O | Amaranthus retroflexus | – | – | 750 g/ha, 21 days, pre-emergence, glasshouse pot | – | growth inhibition | 30%

Some of these lines once more:
Compound | organism | test | system | conditions | how to read | endpoint | value
Cc1cc(OC(C)C)ccc1C(=O)C(C)(C)NC(=O)c1sccc1C | Botrytis cinerea | appressorium formation | B05.10 | 0.3 µg/mL | – | inhibition | 84.5 ± 13.9%
COC[C@H]1O[C@@H]2O[C@H]3[C@H](OC)[C@@H](OC)[C@@H](O[C@H]4[C@H](OC)[C@@H](OC)[C@@H](O[C@H]5[C@H](OC)[C@@H](OC)[C@@H](O[C@H]6[C@H](OC)[C@@H](OC)[C@@H](O[C@H]7[C@H](OC)[C@@H](OC)[C@@H](O[C@H]8[C@H](OC)[C@@H](OC)[C@@H](O[C@H]1[C@H](OC)[C@H]2OC)O[C@@H]8COC)O[C@@H]7COC)O[C@@H]6COC)O[C@@H]5COC)O[C@@H]4COC)O[C@@H]3COC | Escherichia coli | LuxR reporter, antagonist | DH5α sensor strain | 1 µM, together with: OHHL 200 nM | – | inhibition | -2 ± 3%
CC(C)n1ncc2c(C(=O)NCC3(C)CNC3)cc(C3CC3)nc21 | enterovirus A71 | – | Tainan/4643/1998 | 0.03 µM | – | plaque area | 97.8% and 94.8%
